Assay results gathered from unrelated publications.
Changes are numbered by the printed parent chain.
WRKY6 full length assumed: WRKY6 full length assumed (Arabidopsis thaliana, UniProt Q9C519)
UniProt Q9C519, sequence (whole entry, looked up): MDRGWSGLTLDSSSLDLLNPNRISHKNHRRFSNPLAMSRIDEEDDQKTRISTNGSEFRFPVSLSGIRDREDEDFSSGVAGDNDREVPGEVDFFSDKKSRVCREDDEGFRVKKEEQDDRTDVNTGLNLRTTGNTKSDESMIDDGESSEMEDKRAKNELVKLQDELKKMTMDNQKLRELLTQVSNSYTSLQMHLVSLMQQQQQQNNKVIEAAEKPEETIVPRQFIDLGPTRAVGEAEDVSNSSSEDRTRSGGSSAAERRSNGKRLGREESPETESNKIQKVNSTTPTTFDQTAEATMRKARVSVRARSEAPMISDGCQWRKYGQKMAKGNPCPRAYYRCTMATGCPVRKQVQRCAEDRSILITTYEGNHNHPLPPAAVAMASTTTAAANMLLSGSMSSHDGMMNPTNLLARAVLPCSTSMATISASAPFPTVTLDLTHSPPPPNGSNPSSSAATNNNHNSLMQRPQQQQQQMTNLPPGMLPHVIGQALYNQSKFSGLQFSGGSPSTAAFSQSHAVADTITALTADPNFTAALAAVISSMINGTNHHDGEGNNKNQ
OGG1: OGG1 (Homo sapiens, UniProt O15527)
UniProt O15527, sequence (whole entry, looked up): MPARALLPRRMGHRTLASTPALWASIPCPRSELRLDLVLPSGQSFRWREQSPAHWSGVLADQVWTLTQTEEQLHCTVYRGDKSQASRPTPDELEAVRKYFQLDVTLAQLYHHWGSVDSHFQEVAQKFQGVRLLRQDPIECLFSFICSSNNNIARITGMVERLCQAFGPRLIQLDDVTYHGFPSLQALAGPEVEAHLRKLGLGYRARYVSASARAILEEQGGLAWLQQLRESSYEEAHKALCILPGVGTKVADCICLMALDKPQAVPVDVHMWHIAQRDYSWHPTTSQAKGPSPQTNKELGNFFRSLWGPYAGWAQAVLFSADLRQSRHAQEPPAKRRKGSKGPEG
clp full length assumed: clp full length assumed (Lysobacter enzymogenes, UniProt Q7WZ07)
ELAVL1 full length assumed: ELAVL1 full length assumed (Homo sapiens, UniProt Q15717)
UniProt Q15717, sequence (whole entry, looked up): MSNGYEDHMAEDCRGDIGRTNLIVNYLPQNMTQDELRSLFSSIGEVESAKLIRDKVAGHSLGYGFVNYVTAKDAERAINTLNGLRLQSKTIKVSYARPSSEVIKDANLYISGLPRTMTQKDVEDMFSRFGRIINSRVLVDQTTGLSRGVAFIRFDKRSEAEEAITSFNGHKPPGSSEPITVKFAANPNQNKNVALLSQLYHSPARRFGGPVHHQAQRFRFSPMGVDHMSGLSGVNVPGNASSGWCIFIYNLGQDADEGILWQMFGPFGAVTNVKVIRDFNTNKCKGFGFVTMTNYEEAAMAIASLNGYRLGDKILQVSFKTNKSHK
Lin28a: Lin28a 119-180 (Mus musculus, UniProt Q8K3Y3)
UniProt Q8K3Y3, sequence (whole entry, looked up): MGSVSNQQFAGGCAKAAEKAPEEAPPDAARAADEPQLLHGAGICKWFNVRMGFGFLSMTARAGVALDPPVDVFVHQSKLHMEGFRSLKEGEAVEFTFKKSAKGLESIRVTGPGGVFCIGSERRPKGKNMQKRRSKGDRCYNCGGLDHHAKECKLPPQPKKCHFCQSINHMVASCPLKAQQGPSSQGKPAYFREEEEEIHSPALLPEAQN
T1: NFATC1 408-716; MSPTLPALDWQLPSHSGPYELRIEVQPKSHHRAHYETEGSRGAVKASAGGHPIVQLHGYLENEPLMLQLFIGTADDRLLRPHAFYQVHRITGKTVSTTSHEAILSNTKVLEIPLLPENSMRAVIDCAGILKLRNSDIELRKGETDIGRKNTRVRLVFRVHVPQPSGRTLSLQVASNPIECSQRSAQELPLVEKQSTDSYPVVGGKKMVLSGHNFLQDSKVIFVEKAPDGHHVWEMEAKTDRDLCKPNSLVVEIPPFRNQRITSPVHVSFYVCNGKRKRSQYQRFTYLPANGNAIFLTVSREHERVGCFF
P1: NCAM1 residues 745-753 (Mus musculus); IAVNLCGKA; partner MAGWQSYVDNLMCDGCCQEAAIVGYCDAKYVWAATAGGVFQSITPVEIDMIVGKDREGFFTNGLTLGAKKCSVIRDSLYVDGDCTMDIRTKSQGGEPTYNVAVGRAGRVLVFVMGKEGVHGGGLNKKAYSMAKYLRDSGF
UniProt P31943, sequence (whole entry, looked up): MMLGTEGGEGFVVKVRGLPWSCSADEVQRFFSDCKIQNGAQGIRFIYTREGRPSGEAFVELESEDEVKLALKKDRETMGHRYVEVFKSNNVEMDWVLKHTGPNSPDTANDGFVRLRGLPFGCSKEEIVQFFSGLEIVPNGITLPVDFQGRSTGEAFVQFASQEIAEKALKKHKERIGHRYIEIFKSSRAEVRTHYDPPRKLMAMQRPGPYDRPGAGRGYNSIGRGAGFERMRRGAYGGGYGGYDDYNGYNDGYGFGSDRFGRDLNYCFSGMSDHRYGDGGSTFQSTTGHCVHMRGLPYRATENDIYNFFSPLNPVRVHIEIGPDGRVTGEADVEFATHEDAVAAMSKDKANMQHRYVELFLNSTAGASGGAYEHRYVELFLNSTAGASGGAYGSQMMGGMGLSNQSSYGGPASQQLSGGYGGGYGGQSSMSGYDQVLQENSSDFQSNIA
UniProt P50534, sequence (whole entry, unmodified, looked up): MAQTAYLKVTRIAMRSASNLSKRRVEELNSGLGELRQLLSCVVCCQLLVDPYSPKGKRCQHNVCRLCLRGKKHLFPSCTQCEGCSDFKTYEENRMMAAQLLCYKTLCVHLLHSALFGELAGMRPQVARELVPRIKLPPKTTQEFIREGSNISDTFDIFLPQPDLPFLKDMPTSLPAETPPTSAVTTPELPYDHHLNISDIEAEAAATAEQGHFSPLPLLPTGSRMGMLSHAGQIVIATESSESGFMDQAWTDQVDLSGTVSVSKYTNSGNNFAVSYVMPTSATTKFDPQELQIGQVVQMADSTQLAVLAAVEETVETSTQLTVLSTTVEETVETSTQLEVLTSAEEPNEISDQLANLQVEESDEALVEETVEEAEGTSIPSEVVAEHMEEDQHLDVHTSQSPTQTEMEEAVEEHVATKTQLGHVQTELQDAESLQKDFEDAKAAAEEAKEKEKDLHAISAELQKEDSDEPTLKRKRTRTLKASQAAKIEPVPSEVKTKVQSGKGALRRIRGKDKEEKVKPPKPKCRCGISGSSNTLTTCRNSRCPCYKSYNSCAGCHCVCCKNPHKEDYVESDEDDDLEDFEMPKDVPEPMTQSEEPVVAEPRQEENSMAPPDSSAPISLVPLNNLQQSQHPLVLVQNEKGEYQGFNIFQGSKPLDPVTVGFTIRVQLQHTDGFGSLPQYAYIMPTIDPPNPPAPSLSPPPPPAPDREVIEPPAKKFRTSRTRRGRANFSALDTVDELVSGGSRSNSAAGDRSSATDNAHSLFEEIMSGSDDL
UniProt P25822, sequence (whole entry, looked up): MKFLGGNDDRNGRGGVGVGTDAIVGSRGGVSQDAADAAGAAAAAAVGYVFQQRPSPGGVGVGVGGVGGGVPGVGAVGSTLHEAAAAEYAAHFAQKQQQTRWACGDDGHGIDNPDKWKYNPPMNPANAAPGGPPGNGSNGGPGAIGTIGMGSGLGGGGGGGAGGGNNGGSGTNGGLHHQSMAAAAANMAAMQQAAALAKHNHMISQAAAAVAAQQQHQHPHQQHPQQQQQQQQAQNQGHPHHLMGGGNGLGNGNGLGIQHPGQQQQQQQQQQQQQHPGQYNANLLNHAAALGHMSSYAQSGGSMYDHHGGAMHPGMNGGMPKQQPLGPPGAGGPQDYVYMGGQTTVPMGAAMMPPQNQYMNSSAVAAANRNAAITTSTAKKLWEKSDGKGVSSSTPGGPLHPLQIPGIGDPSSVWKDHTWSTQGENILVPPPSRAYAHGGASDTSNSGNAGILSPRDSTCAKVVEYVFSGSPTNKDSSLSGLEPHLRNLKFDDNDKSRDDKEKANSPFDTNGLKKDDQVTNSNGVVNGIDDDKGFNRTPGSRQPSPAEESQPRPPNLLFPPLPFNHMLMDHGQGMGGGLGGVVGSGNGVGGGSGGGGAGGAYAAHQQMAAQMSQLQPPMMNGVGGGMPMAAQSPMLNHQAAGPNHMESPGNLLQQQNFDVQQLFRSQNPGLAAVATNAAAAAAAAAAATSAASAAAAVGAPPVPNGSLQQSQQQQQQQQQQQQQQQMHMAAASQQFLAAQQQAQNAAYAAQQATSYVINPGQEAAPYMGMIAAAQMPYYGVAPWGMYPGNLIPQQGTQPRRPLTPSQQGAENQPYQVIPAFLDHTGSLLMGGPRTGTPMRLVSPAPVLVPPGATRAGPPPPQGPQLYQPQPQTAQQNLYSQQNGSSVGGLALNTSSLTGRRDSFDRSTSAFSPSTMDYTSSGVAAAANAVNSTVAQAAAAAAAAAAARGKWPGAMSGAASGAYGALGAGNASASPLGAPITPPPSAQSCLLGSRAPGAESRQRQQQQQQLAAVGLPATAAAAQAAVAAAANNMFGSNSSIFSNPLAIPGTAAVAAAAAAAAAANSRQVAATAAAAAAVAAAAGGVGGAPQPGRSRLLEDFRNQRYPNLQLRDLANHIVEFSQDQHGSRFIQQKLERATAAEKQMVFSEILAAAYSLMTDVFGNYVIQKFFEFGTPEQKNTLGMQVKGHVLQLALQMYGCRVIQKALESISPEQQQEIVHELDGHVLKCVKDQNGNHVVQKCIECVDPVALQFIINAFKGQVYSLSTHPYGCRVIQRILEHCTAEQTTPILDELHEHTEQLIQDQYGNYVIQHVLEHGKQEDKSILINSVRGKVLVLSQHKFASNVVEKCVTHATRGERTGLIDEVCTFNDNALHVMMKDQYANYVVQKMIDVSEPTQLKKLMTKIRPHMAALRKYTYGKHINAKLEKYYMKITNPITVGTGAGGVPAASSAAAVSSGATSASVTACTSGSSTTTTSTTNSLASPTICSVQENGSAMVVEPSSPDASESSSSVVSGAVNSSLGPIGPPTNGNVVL
UniProt Q9UJV9, sequence (whole entry, looked up): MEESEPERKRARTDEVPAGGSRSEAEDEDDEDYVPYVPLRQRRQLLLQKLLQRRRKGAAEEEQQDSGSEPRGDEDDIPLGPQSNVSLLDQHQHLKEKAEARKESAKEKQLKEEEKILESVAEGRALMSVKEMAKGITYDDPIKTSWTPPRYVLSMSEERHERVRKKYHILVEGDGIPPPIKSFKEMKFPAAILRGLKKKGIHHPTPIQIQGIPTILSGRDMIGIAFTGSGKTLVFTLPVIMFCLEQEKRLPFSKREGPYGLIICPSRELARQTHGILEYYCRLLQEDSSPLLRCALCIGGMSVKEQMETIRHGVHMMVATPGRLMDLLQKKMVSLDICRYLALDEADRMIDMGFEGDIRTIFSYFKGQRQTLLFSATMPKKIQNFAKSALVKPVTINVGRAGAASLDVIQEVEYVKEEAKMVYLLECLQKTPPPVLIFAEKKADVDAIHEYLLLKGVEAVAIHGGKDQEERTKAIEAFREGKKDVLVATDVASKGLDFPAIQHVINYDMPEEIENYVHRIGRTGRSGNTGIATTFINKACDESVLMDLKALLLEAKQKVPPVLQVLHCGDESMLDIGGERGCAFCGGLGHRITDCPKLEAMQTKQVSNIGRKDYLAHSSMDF

TTATTCAGCCATCAAAAGTTGATCAATAAT (dsDNA)  binding (WRKY6 full length assumed; EMSA; double-stranded DNA, one strand shown): no binding
TTTTTTTTTTTTTTTTTTTTTTTTTTTTTTTTTTTTTTTTTTTTT (ssDNA)  binding (DDX41 1-622 (Homo sapiens, UniProt Q9UJV9); EMSA; single-stranded DNA): binds
ATGAGCGAGATG (dsDNA)  binding (msl-2 520-570 R543A/C560G (Drosophila melanogaster, UniProt P50534); NMR titration; double-stranded DNA, one strand shown): no binding
P1 L5A C6S  signal (PFN2; ELISA; 1.6 µM, read off a plot; higher = more binding): 0.049 OD
TTATTCAGCCATCAAAGGTTGACCAGTAAT (dsDNA)  binding (WRKY6 full length assumed; EMSA; double-stranded DNA, one strand shown): binds
CAGCAGCAGCAGCAGCAGCAGCAGCAGCAG (dsDNA; blunt 30 bp, 8-oxoG G6)  binding (OGG1; NaBH4 trapping, SDS-PAGE; double-stranded DNA, one strand shown): binds
AGGCGAGUAGGGUAUGCUG (ssRNA)  binding (HNRNPH1 full length assumed (Homo sapiens, UniProt P31943); UV cross-linking; RNA, S100): binds
GGCGGCGGTCTCATCATCGAAACGGGGCGATGCGCTCATTTTCTTAAACA (dsDNA)  binding (clp full length assumed; competition; double-stranded DNA, one strand shown): binds
CUAGGCGCAGUUGUGUAGCAGUUGAGUAAUGCUGGUUAGCUGUUAAGGUGGCGUGUUGCAGUGCAGAGUGCUUGGCUGUUUCCUGUUUUCUCCCGAUUGCUCCUGUGUAA (RNA; long stem loop)  binding (HNRNPH1 11-188 (Homo sapiens, UniProt P31943); RNase footprinting; folded RNA): binds
TTATTCAGCCATCAAAAGCTGACCAATAAT (dsDNA)  binding (WRKY6 full length assumed; EMSA; double-stranded DNA, one strand shown): no binding
GGTGAGTAAAGTCACGTGGTTATACAACAA (dsDNA)  binding (Basic helix-loop-helix transcription factor 1-394 (Salvia miltiorrhiza, UniProt A0A0H3Y8V8); EMSA; double-stranded DNA, one strand shown): binds
CACGCUCAUGCACACACCCACA (ssRNA)  binding (EPRS1 749-878 (Homo sapiens, UniProt P07814); EMSA; RNA): no binding
AGGAAGTTTTCCGCTGGT (dsDNA)  binding (T1, NFATC1 408-716; EMSA; double-stranded DNA, one strand shown): binds
GATATTCCAAAGAATGATCCGCGTCGCAGGATAATCGGGCCTGCGCCTTT (dsDNA)  binding (clp full length assumed; competition; double-stranded DNA, one strand shown): binds
CAAACAAAACCGUGUAAAAACAAA (ssRNA; single strand, 2'-OMe G12, G14, A23)  binding (rnr 82-725 (Mycoplasmoides genitalium, UniProt P47350); fluorescence polarization; RNA; added: Mg2+): binds
UGGAGAGCUCGCUGCUUCUUCAGGUGUUUCCACUCCUGGU (ssRNA)  binding (ELAVL1 full length assumed; EMSA; RNA): binds
GCAGAUUCACAAUCUAUGAUACCACCCGGUACAGGAGAUAUCUGCA (structured RNA)  binding (Lin28a; EMSA; folded RNA): no binding
GGGAGACCUAGCCUCAUAUAACGGGGGCCAGAAUUGUAUAUAUUCGUAGCAUAAGUUUUCCAAACAUUAUUGGGGGGUCGAAAAUUGUACAUAAGCCAAUUAAGCCGCUA (ssRNA)  binding (pum 1093-1426 (Drosophila melanogaster, UniProt P25822); EMSA; RNA): binds
TGATTTCTTACCTTTTGGAGCCGCATGATGTCGCTGTCTACCATGA (dsDNA)  binding (CTCF 266-577 (Homo sapiens, UniProt P49711); EMSA; double-stranded DNA, one strand shown; not purified): binds
CAGCAGCAGCAGCAGCAGCAGCAGCAGCAG (structured DNA; hairpin, 8-oxoG G6)  binding (OGG1; NaBH4 trapping, SDS-PAGE; folded DNA): binds
GCAGCUUCUUUACAGUGUUGCCUUGUGGCAUGGAGUUCAAGCAGCAUUGUACAGGGCUAUCA (structured RNA)  binding (RBFOX1 109-208 (Homo sapiens, UniProt Q9NWB1); SHAPE footprinting; folded RNA): binds
UGGAGAGCUGGCUGCUUCUUCAGGGGUUUCCACUCCAGGG (ssRNA)  binding (ELAVL1 full length assumed; EMSA; RNA): binds
TTATTCAGCCATCAAAAGTTGACCTATAAT (dsDNA)  binding (WRKY6 full length assumed; EMSA; double-stranded DNA, one strand shown): binds
CUGUAUUUAUCUGUUUAUUUAUACCUAUUUAUGUAUUUAUUUAUUGAAGUGUGAAAUU (ssRNA)  binding (ELAVL1 1-326 (Homo sapiens, UniProt Q15717); EMSA; RNA; not purified): binds
TTATTCAGCCATCAAAAGTTGACAAATAAT (dsDNA)  binding (WRKY6 full length assumed; EMSA; double-stranded DNA, one strand shown): no binding
CGAATATGAGCGAGATGGATG (dsDNA)  binding (msl-2 520-570 C560G (Drosophila melanogaster, UniProt P50534); NMR NOESY; double-stranded DNA, one strand shown): binds
TTATTCAGCCATCAAAAGATGACCAATAAT (dsDNA)  binding (WRKY6 full length assumed; EMSA; double-stranded DNA, one strand shown): no binding
GCAGGCUGAGGUAGUAGUUUGUGCAGACGAAAGUCUGCACAGGCCACUGCCUUGCCAGC (structured RNA)  binding (Lin28a; EMSA; folded RNA): no binding
TTATTCAGCCATCAAAAGTAGACCAATAAT (dsDNA)  binding (WRKY6 full length assumed; EMSA; double-stranded DNA, one strand shown): no binding
AAAAUUCAGUUGAUUUCUAAUUUUUUGUUGAUUCCAUUU (ssRNA)  binding (Elavl3 full length assumed (Mus musculus, UniProt Q60900); EMSA; RNA): binds

Excerpt of the above:
GATATTCCAAAGAATGATCCGCGTCGCAGGATAATCGGGCCTGCGCCTTT (dsDNA)  binding (clp full length assumed; competition; double-stranded DNA, one strand shown): binds
TTATTCAGCCATCAAAAGTTGATCAATAAT (dsDNA)  binding (WRKY6 full length assumed; EMSA; double-stranded DNA, one strand shown): no binding
